Published values from different studies.
Each numbered part is a random draw from the data of one study; scales do not carry over between parts.
Sequence of UniProt Q8WXR4 (whole entry, looked up): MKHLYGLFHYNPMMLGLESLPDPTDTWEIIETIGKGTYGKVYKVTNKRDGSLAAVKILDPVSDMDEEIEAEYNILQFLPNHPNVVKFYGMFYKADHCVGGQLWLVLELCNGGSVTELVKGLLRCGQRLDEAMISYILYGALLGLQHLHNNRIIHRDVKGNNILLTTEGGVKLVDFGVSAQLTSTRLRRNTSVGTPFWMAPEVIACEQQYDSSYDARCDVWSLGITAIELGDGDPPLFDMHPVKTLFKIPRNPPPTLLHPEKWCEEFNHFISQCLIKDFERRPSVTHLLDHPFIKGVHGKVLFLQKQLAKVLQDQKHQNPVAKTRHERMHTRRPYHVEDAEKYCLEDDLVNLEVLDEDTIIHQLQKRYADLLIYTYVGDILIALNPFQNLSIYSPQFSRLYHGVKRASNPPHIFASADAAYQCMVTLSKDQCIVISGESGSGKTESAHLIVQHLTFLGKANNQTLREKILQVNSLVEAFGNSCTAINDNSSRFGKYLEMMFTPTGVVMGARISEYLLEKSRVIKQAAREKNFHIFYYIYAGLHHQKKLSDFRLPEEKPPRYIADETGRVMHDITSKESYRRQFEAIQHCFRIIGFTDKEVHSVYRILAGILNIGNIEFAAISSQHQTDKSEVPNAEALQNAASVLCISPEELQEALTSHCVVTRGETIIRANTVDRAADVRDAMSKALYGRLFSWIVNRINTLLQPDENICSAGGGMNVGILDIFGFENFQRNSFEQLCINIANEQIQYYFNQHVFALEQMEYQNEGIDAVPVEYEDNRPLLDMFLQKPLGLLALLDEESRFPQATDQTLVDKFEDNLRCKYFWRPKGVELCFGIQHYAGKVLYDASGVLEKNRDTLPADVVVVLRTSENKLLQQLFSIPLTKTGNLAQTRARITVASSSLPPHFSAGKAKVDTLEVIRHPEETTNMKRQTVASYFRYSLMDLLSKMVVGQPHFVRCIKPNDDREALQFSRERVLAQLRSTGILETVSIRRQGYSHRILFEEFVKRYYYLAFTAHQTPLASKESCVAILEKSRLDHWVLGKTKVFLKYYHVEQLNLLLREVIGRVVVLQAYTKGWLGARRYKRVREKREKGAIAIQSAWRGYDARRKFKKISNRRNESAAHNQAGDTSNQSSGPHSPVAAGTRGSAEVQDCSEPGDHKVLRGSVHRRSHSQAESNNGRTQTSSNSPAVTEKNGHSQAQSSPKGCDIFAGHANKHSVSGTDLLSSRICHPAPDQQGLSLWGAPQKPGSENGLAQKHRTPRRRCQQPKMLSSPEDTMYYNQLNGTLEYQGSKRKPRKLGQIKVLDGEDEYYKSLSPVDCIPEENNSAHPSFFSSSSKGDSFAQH
Sequence of UniProt P37173 (whole entry, looked up): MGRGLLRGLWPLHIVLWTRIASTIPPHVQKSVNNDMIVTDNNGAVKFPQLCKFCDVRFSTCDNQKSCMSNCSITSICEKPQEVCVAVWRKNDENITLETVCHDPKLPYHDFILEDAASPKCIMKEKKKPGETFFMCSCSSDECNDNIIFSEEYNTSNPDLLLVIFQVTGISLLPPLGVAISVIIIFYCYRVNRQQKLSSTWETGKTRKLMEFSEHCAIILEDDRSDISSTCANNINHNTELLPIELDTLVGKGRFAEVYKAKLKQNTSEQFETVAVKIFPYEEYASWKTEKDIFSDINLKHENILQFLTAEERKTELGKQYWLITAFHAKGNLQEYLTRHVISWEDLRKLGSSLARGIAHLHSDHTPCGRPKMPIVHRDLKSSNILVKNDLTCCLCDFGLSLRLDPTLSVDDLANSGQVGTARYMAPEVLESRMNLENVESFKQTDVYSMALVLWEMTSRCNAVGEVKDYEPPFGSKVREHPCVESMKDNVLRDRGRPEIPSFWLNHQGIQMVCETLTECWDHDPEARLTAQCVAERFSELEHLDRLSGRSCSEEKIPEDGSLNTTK
Sequence of UniProt Q00526 (whole entry, looked up): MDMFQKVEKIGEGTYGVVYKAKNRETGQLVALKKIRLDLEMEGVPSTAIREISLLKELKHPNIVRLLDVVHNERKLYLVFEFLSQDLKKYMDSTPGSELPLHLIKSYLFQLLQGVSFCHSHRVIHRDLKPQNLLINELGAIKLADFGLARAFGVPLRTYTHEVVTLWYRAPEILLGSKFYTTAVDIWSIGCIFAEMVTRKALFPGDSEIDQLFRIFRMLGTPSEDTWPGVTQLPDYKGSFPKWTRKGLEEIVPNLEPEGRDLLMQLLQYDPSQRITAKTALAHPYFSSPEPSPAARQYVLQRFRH
Sequence of UniProt Q15139 (whole entry, looked up): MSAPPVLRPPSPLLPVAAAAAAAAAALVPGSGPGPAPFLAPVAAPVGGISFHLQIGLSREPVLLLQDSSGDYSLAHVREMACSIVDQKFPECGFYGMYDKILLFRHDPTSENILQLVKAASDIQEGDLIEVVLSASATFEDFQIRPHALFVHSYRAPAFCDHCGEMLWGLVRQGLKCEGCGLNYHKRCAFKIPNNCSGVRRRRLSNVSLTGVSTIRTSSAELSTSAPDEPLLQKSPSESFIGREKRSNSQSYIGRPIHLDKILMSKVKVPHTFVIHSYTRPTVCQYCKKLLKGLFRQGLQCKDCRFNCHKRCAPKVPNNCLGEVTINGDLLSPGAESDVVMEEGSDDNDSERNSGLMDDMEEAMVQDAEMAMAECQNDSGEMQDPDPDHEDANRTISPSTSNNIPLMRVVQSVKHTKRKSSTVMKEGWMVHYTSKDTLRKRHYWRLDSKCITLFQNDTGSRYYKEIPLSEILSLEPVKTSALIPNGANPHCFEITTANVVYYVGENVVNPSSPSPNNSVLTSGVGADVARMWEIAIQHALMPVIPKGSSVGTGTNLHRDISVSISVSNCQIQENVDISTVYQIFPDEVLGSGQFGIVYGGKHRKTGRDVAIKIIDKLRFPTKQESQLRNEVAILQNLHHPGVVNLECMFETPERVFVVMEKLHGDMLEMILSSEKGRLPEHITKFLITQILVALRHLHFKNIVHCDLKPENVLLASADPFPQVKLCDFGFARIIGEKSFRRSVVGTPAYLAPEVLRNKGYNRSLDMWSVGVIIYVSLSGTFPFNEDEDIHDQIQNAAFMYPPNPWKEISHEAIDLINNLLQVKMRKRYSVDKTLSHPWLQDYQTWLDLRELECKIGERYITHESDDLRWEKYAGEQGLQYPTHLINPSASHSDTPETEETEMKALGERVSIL
Sequence of UniProt Q9P1W9 (whole entry, looked up): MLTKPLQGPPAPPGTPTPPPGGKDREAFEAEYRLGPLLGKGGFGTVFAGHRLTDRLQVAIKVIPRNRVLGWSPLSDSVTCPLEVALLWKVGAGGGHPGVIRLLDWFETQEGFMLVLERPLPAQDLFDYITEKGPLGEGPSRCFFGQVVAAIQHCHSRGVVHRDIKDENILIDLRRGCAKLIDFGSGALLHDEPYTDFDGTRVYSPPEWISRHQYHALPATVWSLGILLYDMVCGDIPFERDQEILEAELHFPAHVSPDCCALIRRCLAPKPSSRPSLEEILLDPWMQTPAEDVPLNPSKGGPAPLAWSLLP
Sequence of UniProt P41240 (whole entry, looked up): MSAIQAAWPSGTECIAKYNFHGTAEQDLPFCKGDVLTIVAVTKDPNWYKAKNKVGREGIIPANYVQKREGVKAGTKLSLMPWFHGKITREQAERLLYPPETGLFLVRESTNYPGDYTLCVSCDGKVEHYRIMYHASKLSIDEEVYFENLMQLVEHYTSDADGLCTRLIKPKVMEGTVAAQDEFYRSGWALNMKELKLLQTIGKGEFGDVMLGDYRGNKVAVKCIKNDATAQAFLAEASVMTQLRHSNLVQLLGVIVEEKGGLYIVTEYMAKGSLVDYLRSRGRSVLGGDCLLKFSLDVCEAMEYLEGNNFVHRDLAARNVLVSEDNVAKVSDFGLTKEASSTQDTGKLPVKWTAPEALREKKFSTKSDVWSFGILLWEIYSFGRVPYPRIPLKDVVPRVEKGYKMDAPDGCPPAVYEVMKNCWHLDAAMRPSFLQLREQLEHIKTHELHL

Series 1 — organism: Sarcocystis neurona; effect on: parasite activity; concentration: 10 µM; time: 96 h; endpoint: activity class
OCc1cc(C(O)CNCCCCCCOCCCCc2ccccc2)ccc1O (stereo not shown): inactive
C[C@@H](c1ncncc1F)[C@](O)(Cn1cncn1)c1ccc(F)cc1F: inactive
CCCCNC(=O)NS(=O)(=O)c1ccc(C)cc1: inactive
CN(C)CCC[C@@]1(c2ccc(F)cc2)OCc2cc(C#N)ccc21: inactive
CC(Oc1c(Cl)cccc1Cl)C1=NCCN1 (stereo not shown): inactive
O=C1N[C@H](C(=O)O)CS1: inactive
OCCN1CCN(CCCN2c3ccccc3Sc3ccc(C(F)(F)F)cc32)CC1: inactive
O=C(O)CCc1nc(-c2ccccc2)c(-c2ccccc2)o1: inactive
COc1c(N2CCNC(C)C2)c(F)cc2c(=O)c(C(=O)O)cn(C3CC3)c12 (stereo not shown): inactive
O=c1c(O[C@@H]2O[C@H](CO)[C@H](O)[C@H](O)[C@H]2O)c(-c2ccc(O)c(O)c2)oc2cc(O)cc(O)c12: inactive
C[C@H]1C[C@@H]2[C@H]([C@@H](O)C[C@@]3(C)[C@H]2CC[C@]3(O)C(=O)CO)[C@@]2(C)C=CC(=O)C=C12: inactive
CC(C)c1nc(CN(C)C(=O)N[C@H](C(=O)N[C@@H](Cc2ccccc2)C[C@H](O)[C@H](Cc2ccccc2)NC(=O)OCc2cncs2)C(C)C)cs1: inactive
CN1CCN(CCCN2c3ccccc3Sc3ccc(Cl)cc32)CC1: inactive
CN(C)CCC=C1c2ccccc2CCc2ccccc21: inactive
CCn1cc(C(=O)O)c(=O)c2cc(F)c(N3CCNCC3)cc21: inactive
CN(C)CC/C=C1/c2ccccc2COc2ccc(CC(=O)O)cc21: inactive
C#C[C@]1(O)CC[C@H]2[C@@H]3CCc4cc(O)ccc4[C@H]3CC[C@@]21C: inactive

Series 2 — effect on: cell-free assay; technique: competition with immobilised ligand; concentration: 1 µM; endpoint: remaining binding
SMILES: Nc1cnc(N2CCc3cc(S(=O)(=O)Nc4c(F)cc(Cl)cc4F)cc(N4CCCC4=O)c32)nc1
Proto-oncogene tyrosine-protein kinase ROS (ROS1, Homo sapiens, UniProt P08922): 99%
Macrophage-stimulating protein receptor (MST1R, Homo sapiens, UniProt Q04912): 98%
Tyrosine-protein kinase ITK/TSK (ITK, Homo sapiens, UniProt Q08881): 100%
Serine/threonine-protein kinase pim-2 (PIM2, Homo sapiens, UniProt Q9P1W9): 85%
Tyrosine-protein kinase ABL1, phosphorylated (ABL1, Homo sapiens, UniProt P00519, T315I): 98%
Cyclin-dependent kinase 3 (CDK3, Homo sapiens, UniProt Q00526): 100%
TGF-beta receptor type-2 (TGFBR2, Homo sapiens, UniProt P37173): 92%
Myosin-IIIb (MYO3B, Homo sapiens, UniProt Q8WXR4): 100%
Serine/threonine-protein kinase D1 (PRKD1, Homo sapiens, UniProt Q15139): 83%
Serine/threonine-protein kinase MARK2 (MARK2, Homo sapiens, UniProt Q7KZI7): 74%
Tyrosine-protein kinase CSK (CSK, Homo sapiens, UniProt P41240): 99%
Mitogen-activated protein kinase kinase kinase kinase 4 (MAP4K4, Homo sapiens, UniProt O95819): 61%
Proto-oncogene tyrosine-protein kinase receptor Ret (RET, Homo sapiens, UniProt P07949, V804L): 99%

Series 3 — effect on: enzyme activity; mode: inhibitor; concentration: 0.5 µM; reference: control; endpoint: remaining activity
Target: Serine/threonine-protein kinase Sgk3 (SGK3, Homo sapiens, UniProt Q96BR1)
Sequence of UniProt Q96BR1 (whole entry, looked up): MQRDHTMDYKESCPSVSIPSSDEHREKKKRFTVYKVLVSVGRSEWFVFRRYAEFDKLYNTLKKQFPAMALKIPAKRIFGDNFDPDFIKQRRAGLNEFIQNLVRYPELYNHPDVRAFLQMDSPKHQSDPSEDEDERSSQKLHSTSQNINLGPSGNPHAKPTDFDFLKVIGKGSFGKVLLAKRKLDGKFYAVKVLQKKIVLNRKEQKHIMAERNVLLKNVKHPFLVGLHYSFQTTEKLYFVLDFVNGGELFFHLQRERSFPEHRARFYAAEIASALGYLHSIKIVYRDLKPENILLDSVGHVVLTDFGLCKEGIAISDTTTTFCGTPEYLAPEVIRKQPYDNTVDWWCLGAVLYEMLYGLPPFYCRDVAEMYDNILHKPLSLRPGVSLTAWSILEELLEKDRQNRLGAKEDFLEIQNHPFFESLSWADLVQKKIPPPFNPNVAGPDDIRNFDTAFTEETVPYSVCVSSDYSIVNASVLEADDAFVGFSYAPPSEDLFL
Cc1cncc2cccc(S(=O)(=O)N3CCCN(C(=O)CN)C[C@@H]3C)c12: 96%
CC[n+]1c(/C=C/N(C)c2ccccc2)n(-c2ccccc2)c2ccc(-c3nc4ccccc4s3)cc21: 102%
Cc1cc(Nc2nc(-c3ccccc3)nc3ccccc23)n[nH]1: 104%
CC(=O)c1ccc(N2CCOCC2)cc1O: 105%
CCCC(=O)Oc1ccc2[nH]c(C(=O)c3cc4ccccc4[nH]3)cc2c1: 102%
CC#CC(=O)Nc1cc2c(Nc3ccc(F)c(Cl)c3)ncnc2cn1: 100%
Nc1nc(Nc2ccc(S(N)(=O)=O)cc2)nn1C(=O)c1c(F)cccc1F: 114%
N#CC(=C(N)Sc1ccc(N)cc1)c1ccccc1C(F)(F)F: 105%
COc1cc(Nc2c(C#N)cnc3cc(OCCCN4CCN(C)CC4)c(OC)cc23)c(Cl)cc1Cl: 94.4%
Nc1ncnc2c1cnn2-c1ccccc1: 92.3%
CSc1nc(-c2ccnc(N[C@@H](C)c3ccccc3)c2)c(-c2ccc(F)cc2)[nH]1 (racemic): 103%
CCc1[nH]c(-c2ccc(OC)cc2)nc1-c1ccncc1: 99.3%

Series 4 — mode: agonist; endpoint: EC50
Target: Beta-1 adrenergic receptor (ADRB1, Homo sapiens, UniProt P08588)
Sequence of UniProt P08588 (whole entry, looked up): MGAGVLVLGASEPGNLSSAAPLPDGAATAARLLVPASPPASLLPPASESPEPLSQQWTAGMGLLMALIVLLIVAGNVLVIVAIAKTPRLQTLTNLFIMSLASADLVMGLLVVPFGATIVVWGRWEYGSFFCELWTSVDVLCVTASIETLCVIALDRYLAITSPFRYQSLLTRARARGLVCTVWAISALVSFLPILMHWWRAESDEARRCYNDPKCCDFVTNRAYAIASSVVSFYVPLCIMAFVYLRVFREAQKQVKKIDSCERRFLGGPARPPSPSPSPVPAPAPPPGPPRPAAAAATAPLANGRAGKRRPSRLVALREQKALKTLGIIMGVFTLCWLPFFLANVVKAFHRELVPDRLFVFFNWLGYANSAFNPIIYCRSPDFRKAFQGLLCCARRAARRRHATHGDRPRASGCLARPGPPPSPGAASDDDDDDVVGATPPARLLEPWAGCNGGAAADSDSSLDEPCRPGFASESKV
O=c1c(Cl)c(NC(c2ccccc2)c2cccs2)cnn1-c1ccccc1 (stereo not shown): ≥ 100 µM
Cc1cc(-c2nccc3c(=O)cc(N(C)C)oc23)ccn1: ≥ 100 µM
Cc1ccccc1-c1n[nH]c2ncc(-c3cn[nH]c3)nc12: ≥ 100 µM
CC1(C)CC(=O)c2cc(C(=O)Nc3cccc4ccccc34)c(O)nc2C1: ≥ 100 µM
O=C1c2cnc(-c3ccsc3)nc2OCCN1c1ccccc1: ≥ 100 µM
COc1ccc(C(=O)N2CCc3cc(OC)c(OC)cc3C2COc2ccc3c(C)cc(=O)oc3c2)c(OC)c1 (stereo not shown): ≥ 100 µM
COc1ccccc1N1CCN([S+](=O)([O-])N2CCC(C)C2)CC1 (stereo not shown): ≥ 100 µM
COCCNCc1ccc(-c2cc3nccc(Oc4ccc(NC(=S)NC(=O)Cc5ccc(F)cc5)cc4F)c3s2)nc1: ≥ 100 µM
COc1cc(-c2nccc3c(=O)cc(N(C)c4ccccc4)oc23)ccn1: ≥ 100 µM
Cc1noc2c(-c3cn[nH]c3)cc(-c3ccccc3)nc12: ≥ 100 µM
